Published values of several laboratories.
B1: ALPL 18-500 (Homo sapiens, UniProt P05186); sequence looked up; chain LVPEKEKDPKYWRDQAQETLKYALELQKLNTNVAKNVIMFLGDGMGVSTVTAARILKGQLHHNPGEETRLEMDKFPFVALSKTYNTNAQVPDSAGTATAYLCGVKANEGTVGVSAATERSRCNTTQGNEVTSILRWAKDAGKSVGIVTTTRVNHATPSAAYAHSADRDWYSDNEMPPEALSQGCKDIAYQLMHNIRDIDVIMGGGRKYMYPKNKTDVEYESDEKARGTRLDGLDLVDTWKSFKPRYKHSHFIWNRTELLTLDPHNVDYLLGLFEPGDMQYELNRNNVTDPSLSEMVVVAIQILRKNPKGFFLLVEGGRIDHGHHEGKAKQALHEAVEMDRAIGQAGSLTSSEDTLTVVTADHSHVFTFGGYTPRGNSIFGLAPMLSDTDKKPFTAILYGNGPGYKVVGGERENVSMVDYAHNNYQAQSAVPLRHETHGGEDVAVFSKGPMAHLLHGVHEQNYVPHVMAYAACIGANLGHCAPA
B2: aqpZ 1-231 C20S/W14A (Escherichia coli, UniProt P60844); chain MFRKLAAECFGTFALVFGGSGSAVLAAGFPELGIGFAGVALAFGLTVLTMAFAVGHISGGHFNPAVTIGLWAGGRFPAKEVVGYVIAQVVGGIVAAALLYLIASGKTGFDAAASGFASNGYGEHSPGGYSMLSALVVELVLSAGFLLVIHGATDKFAPAGFAPIAIGLALTLIHLISIPVTNTSVNPARSTAVAIFQGGWALEQLWFFWVVPIVGGIIGGLIYRTLLEKRD
B3: UGT1A9 (Homo sapiens, UniProt O60656); chain GKLLVVPMDGSHWFTMRSVVEKLILRGHEVVVVMPEVSWQLGRSLNCTVKTYSTSYTLEDLDREFKAFAHAQWKAQVRSIYSLLMGSYNDIFDLFFSNCRSLFKDKKLVEYLKESSFDAVFLDPFDNCGLIVAKYFSLPSVVFARGILCHYLEEGAQCPAPLSYVPRILLGFSDAMTFKERVRNHIMHLEEHLLCHRFFKNALEIASEILQTPVTEYDLYSHTSIWLLRTDFVLDYPKPVMPNMIFIGGINCHQGKPLPMEFEAYINASGEHGIVVFSLGSMVSEIPEKKAMAIADALGKIPQTVLWRYTGTRPSNLANNTILVKWLPQNDLLGHPMTRAFITHAGSHGVYESICNGVPMVMMPLFGDQMDNAKRMETKGAGVTLNVLEMTSEDLENALKAVINDKSYKENIMRLSSLHKDRPVEPLDLAVFWVEFVMRHKGAPHLRPAAHDLTWYQYHSLDVIGFLLAVVLTVAFITFKCCAYGYRKCLGKKGRVKKAHKSKTH
B4: Ptpn5 C65S/C76S (Mus musculus, UniProt P54830-1); sequence looked up; chain MCCSERLLGLPQPVEMEAPDEAEGLPSKQKEMPPPPPPSPPSEPAQKLPPQGAGSHSLTVRSSLSLFAASQFLLASGVLWLSGHGHSWLQNTTDLISSSLTVLNHLGPVAWLGSGTWGIPSLLLVSLTVSLVIVTTLVWHLLKAPPEPPAPLPPEDRRQSVSRQPSFTYSEWMEEKVEDDFLDLDAVPETPVFDCVMDIKPETDPASLTVKSMGLQERRGSNVSLTLDMCTPGCNEEGFGYLVSPREESAHEYLLSASRVLRAEELHEKALDPFLLQAEFFEIPMNFVDPKEYDIPGLVRKNRYKTILPNPHSRVRLTSPDPEDPLSSYINANYIRGYSGEEKVYIATQGPIVSTVADFWRMVWQERTPIIVMITNIEEMNEKCTEYWPEEQVVHDGVEITVQKVIHTEDYRLRLISLRRGTEERSLKHYWFTSWPDQKTPDRAPPLLHLVREVEEAAQQEGPHCSPIIVHCSAGIGRTGCFIATSICCQQLRREGVVDILKTTCQLRQDRGGMIQTCEQYQFVHHAMSLYEKQLSLQSSE
B5: Il2/Il2ra IL-2 fused to CD25 ectodomain (Mus musculus); chain APTSSSTSSSTAEAQQQQQQQQQQQQHLEQLLMDLQELLSRMENYRNLKLPRMLTFKFYLPKQATELKDLQCLEDELGPLRHVLDLTQSKSFQLEDAENFISNIRVTVVKLKGSDNTFECQFDDESATVVDFLRRWIAFCQSIISTSPQGGGSGGGSGGGSELCLYDPPEVPNATFKALSYKNGTILNCECKRGFRRLKELVYMRCLGNSWSSNCQCTSNSHDKSRKQVTAQLEHQKEQQTTTDMQKPTQSMHQENLTGHCREPPPWKHEDSKRIYHFVEGQSVHYECIPGYKALQRGPAISICKMKCGKTGWTQPQLTCVDEREHHRFLASEESQGSRNSSPESETSCPITTTDFPQPTETTAMTETFVLTMEYKGG
B6: aqpZ 1-231 C20S/G144F (Escherichia coli, UniProt P60844); chain MFRKLAAECFGTFWLVFGGSGSAVLAAGFPELGIGFAGVALAFGLTVLTMAFAVGHISGGHFNPAVTIGLWAGGRFPAKEVVGYVIAQVVGGIVAAALLYLIASGKTGFDAAASGFASNGYGEHSPGGYSMLSALVVELVLSAFFLLVIHGATDKFAPAGFAPIAIGLALTLIHLISIPVTNTSVNPARSTAVAIFQGGWALEQLWFFWVVPIVGGIIGGLIYRTLLEKRD
B7: Xrcc1 535-631 (Mus musculus, UniProt Q60596); sequence looked up; chain PELPDFFEGKHFFLYGEFPGDERRRLIRYVTAFNGELEDYMNERVQFVITAQEWDPNFEEALMENPSLAFVRPRWIYSCNEKQKLLPHQLYGVVPQA

Substance = B1 (ALPL 18-500); tested on = itself; assay = crystal structure; measurement = binding; value = binds
Substance = B2 (aqpZ 1-231 C20S/W14A); tested on = itself; assay = light scattering; test system = proteoliposomes; setting = hyperosmotic shock; measurement = channel permeability; value = 4.1e-14 cm^3 s^–1
Substance = B3 (UGT1A9); tested on = O=c1cc(-c2ccc(O)cc2)oc2ccccc12; assay = steady-state kinetics; setting = pH 7.4, 37 °C; measurement = Km; value = 1.46 µM
Substance = B4 (Ptpn5 C65S/C76S); tested on = itself; assay = pNPP dephosphorylation; test system = HEK 293; setting = immunoprecipitated; how to read = reference: STEP61 WT, higher = more activity; measurement = phosphatase activity; value = 4 fold
Substance = B5; tested on = itself; assay = CTLL proliferation; how to read = reference: recombinant mIL-2, higher = more active; measurement = bioactivity; value = 42 fold
Substance = CRYAA R116C (Homo sapiens) (sequence not shown); tested on = itself; assay = SEC-MALS; measurement = binding; value = binds
Substance = B6 (aqpZ 1-231 C20S/G144F); tested on = itself; assay = light scattering; test system = proteoliposomes; setting = hyperosmotic shock; measurement = channel permeability; value = 1.11e-13 cm^3 s^–1
Substance = DIQKVAGTWY (LGB 11-20 (Bos taurus); N-acetyl, C-terminal amide); tested on = itself; assay = solid-state NMR; test system = peptide; measurement = binding; value = binds
Substance = B7 (Xrcc1 535-631); tested on = itself; assay = circular dichroism; measurement = apparent melting temperature; value = 54.3 °C
Substance = G3BP1 fragment F15W/F33W/F124W (Homo sapiens) (sequence not shown); tested on = itself; assay = crystal structure; measurement = binding; value = binds
Substance = CRYAA F71L (Homo sapiens) (sequence not shown); tested on = itself; assay = SEC; measurement = binding; value = binds

For quick reference, copied from above:
Substance = B1 (ALPL 18-500); tested on = itself; assay = crystal structure; measurement = binding; value = binds
